Results gathered from unrelated publications.
Compare with care: the assays were run in different laboratories.
Matrix: plasma

C[Si]1(C[C@@H](CN)CC(=O)O)CCCC1 — Tmax (male Sprague-Dawley rat; oral, 30 mg/kg, single dose): 0.67 h
Cn1c(=O)oc2ccc(-c3ccc(CC(C#N)NC(=O)C4CNCCCO4)c(F)c3)cc21 (centres unmarked) — Tmax (human; 20 mg once daily, day 28, median): 1.5 h
Cc1ccc(OCC(=O)O)cc1 — Tmax (Sprague-Dawley rat, male; oral, 30 mg/kg/day of parent drug, day 1, 90-day repeated dosing): 3 h
CCc1c2c(nc3ccc(O)cc13)-c1cc3c(c(=O)n1C2)COC(=O)[C@]3(O)CC — Tmax (human patients; intravenous, 133 mg/m^2 of parent drug): 1.21 h
Cc1ccc(OCC(=O)N(Cc2cccs2)c2ccn[nH]2)cc1 — Tmax (female Sprague-Dawley rat; oral, 10 mg/kg, single dose): 0.25 h
CCc1cc(Nc2nc(-c3ccc(-n4cnc(C)c4)c(F)c3)cs2)c(C)cc1C — Tmax (human, both sexes; oral, 100 mg once daily, day 14, multiple dose, geometric mean): 4.3 h
C[Si](C)(C)C[C@H](CN)CC(=O)O — Tmax (male Sprague-Dawley rat; oral, 30 mg/kg, single dose): 0.83 h
O=C(CCc1ccc(CNC(C(=O)OC2CCCC2)C2CCCCC2)cn1)NO (centres unmarked) — Tmax (human; oral, 5 mg, single dose, median): 0.75 h

For quick reference, copied from above:
CCc1cc(Nc2nc(-c3ccc(-n4cnc(C)c4)c(F)c3)cs2)c(C)cc1C — Tmax (human, both sexes; oral, 100 mg once daily, day 14, multiple dose, geometric mean): 4.3 h
